# Results gathered from unrelated publications.
# A part holds a random share of what one study measured. Positions count from the first letter of the parent shown.

# Study 1
# Target: Sal-like protein 4, full length isoform A (SALL4, Homo sapiens, UniProt Q9UJQ4, residues 1-1053)
# Chain of UniProt Q9UJQ4 (whole entry, looked up): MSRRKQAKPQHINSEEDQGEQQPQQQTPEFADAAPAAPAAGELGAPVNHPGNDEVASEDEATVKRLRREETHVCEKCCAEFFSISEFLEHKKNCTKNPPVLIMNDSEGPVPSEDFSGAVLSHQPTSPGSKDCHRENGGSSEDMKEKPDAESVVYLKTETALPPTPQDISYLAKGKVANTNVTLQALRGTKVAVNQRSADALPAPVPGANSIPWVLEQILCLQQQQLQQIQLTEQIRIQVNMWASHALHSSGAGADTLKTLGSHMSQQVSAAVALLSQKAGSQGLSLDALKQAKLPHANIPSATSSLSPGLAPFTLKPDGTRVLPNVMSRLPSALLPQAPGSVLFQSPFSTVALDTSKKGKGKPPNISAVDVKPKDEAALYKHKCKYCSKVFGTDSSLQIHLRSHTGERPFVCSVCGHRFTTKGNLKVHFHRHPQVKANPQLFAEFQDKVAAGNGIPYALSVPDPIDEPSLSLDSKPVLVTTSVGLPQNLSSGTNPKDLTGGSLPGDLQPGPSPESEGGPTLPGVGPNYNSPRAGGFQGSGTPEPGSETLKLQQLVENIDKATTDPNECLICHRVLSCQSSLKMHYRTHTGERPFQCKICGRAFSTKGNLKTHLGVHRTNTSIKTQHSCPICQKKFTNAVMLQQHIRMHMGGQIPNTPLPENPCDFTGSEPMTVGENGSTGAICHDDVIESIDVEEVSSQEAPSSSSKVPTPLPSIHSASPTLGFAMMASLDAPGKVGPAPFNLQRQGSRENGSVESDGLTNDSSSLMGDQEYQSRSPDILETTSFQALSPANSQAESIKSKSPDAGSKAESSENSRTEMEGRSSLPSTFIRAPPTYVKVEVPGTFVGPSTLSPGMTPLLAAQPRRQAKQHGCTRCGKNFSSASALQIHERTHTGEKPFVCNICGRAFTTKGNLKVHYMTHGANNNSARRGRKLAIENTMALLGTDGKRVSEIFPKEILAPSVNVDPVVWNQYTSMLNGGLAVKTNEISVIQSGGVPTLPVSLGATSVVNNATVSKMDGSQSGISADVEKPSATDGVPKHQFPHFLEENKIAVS
# Technique: universal PBM
# Molecule type: double-stranded DNA, one strand shown
# Sample: in vitro
# Concentration: 600 nM
# Notes: 8-mer, flanks averaged, mean of replicates
# Direction: higher = stronger binding
Oligonucleotide,E-score
GGGACCAC,-0.262
ATGCAAAG,0.144
ACCGCCGA,-0.253
CAAGCCAG,-0.166
CTGAAGGC,-0.185
AGGATAAT,0.216
CGATACAG,-0.0723
GAGCGTGA,-0.203
GTGAGACA,-0.0597
CTCTAAAG,-0.0529

# Study 2
# Target: Interferon regulatory factor 7, full length, phosphomimetic (IRF7, Homo sapiens, UniProt Q92985, residues 1-503, S101K/S471D/S472D/S475D/S476D/S477D/S483D/S484D/S487D)
# Technique: protein-binding microarray
# Molecule type: double-stranded DNA, one strand shown
# Sample: in vitro
# Concentration: 250 nM
# Notes: 60-bp whole probe
# Added: salmon DNA 0.4 mg/ml
# Baseline: random background probes
# Direction: higher = stronger binding
# Shared flanks, not repeated: GCCTAGCAC … GTCTTGATTCGCTTGACGCTGCTG
# Residues (chain): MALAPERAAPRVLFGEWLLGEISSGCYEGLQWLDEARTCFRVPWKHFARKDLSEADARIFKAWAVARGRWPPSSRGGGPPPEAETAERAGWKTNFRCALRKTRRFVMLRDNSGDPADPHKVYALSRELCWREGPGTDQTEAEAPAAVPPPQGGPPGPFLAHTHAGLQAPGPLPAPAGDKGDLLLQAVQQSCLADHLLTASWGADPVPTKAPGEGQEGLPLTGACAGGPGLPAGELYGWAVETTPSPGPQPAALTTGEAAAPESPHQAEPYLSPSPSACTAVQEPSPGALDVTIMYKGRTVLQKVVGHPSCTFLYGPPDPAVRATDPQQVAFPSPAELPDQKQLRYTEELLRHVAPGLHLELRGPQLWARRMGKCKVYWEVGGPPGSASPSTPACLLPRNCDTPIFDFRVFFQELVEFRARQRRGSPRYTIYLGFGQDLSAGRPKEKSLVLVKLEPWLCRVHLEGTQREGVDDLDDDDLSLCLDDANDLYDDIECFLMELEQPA
Oligonucleotide,log fluorescence
TTAGATATCAGAGTGGATTAGTGCTAG,-0.0215 z-score
TTAGGATTCGGGTTTCGGTTAGTGCTA,8.96 z-score
GGCAGGAATAAAGGAGCAGCGTGCTAG,-0.692 z-score
GACGGTTTGGACTATCGGGACGTGCTA,-0.256 z-score
GAGGGTTTCCTTATCCTGACGTGCTAG,1.8 z-score
TTAGGTTTCGTTCTCGGTTAGTGCTAG,10 z-score

# Study 3
# Target: CCNA2, cyclin fold, Cln2 fusion (human)
# Technique: yeast growth competition, sequencing
# Sample: yeast
# Notes: strong parent motif
# Baseline: not given
# Direction: higher = stronger binding
# Parent: SAMHD1 docking peptide (human); ASKSRVQLFKDDP; partner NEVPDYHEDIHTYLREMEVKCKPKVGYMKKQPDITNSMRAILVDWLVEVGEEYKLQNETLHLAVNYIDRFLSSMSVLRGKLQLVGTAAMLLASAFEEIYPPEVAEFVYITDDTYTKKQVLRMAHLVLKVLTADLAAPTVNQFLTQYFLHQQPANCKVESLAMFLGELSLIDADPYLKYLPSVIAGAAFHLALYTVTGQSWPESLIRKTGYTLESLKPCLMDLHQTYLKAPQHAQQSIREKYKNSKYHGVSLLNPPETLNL
Variant,normalised enrichment score
ASKSRVSLFKDDP [Q7S],0.876
ASKSRVQLFWDDP [K10W],1.55
ASKSRVDLFKDDP [Q7D],-0.034
ASKARVQLFKDDP [S4A],5.33
ASKSRVQLNKDDP [F9N],0.381
ACKSRVQLFKDDP [S2C],3.94
ASNSRVQLFKDDP [K3N],1.45

# Further values, each from its own experiment
Molecule,target,assay,system,setting,scale,quantity,result
"PhoQ, residues 284 288 289 292 302 303 SCEHLI","PhoP, residues 12 14 15 18 19 NHFIF (Escherichia coli, UniProt P23836)","Sort-seq, refers to: YFP reporter",E. coli,"PhoQ-PhoP variant library, added: 10 µM Mg2+","baseline: high Mg2+ state, higher = stronger signaling",fold induction,18.8

# Repeated from above (study 1):
Oligonucleotide,E-score
GGGACCAC,-0.262
ATGCAAAG,0.144
